Experimental data pooled from the literature.
Protocols differ between the studies behind these lines. Several values in a cell are separate wells, animals, samples, runs or records. ± marks the error that the study gave.
GSTP1: Glutathione S-transferase P (GSTP1, Homo sapiens, UniProt P09211)
CYP1B1: Cytochrome P450 1B1 (CYP1B1, Homo sapiens, UniProt Q16678)

| Substance | target | test | test system | conditions | how to read | Kd |
| --- | --- | --- | --- | --- | --- | --- |
| COc1ncc(C[n+]2csc(CCOP(=O)(O)OP(=O)(O)O)c2C)c(N)n1 | aceE (Escherichia coli, UniProt P0AFG8) | binding |  | pH 7 |  | 2.68 ± 0.56 µM |
| Ristocetin | Lys-D-Ala-D-Ala peptide MBP fusion | binding, SPR |  | 25 °C |  | 1.7 ± 0.3 µM |
| CC1=C(/C=C/C(C)=C/C=C/C(C)=C/C=C/C=C(C)/C=C/C=C(C)/C=C/C2=C(C)CCCC2(C)C)C(C)(C)CCC1 | GSTP1 | binding, SPR |  |  |  | 1.19 µM |
| CC#Cc1ccc2ccc3cccc4ccc1c2c34 | CYP1B1 | binding, fluorescence |  | pH 7.4 |  | 1.9 µM and < 2.5 µM |
| O=C1C2CC3CC(C2)CC1C3 | camC (Pseudomonas putida, UniProt P00183, C335A) | site I binding, temperature-jump relaxation, fast phase |  |  |  | 2.7 ± 1.6 µM |
| O=P(O)(O)OP(=O)(O)OP(=O)(O)OC[C@H]1O[C@@H](n2cnc3c(NCCc4ccccc4)ncnc32)[C@H](O)[C@@H]1O | CFTR NBD1 | binding, thermal shift |  |  |  | 0.3 ± 0.03 µM |
| TAMRA-ATP | mutS (Escherichia coli, UniProt P23909, D693V) | fluorescence anisotropy |  | room temperature, no DNA |  | 20.7 ± 1.6 µM |
| NC(=O)C1=CN([C@@H]2O[C@H](COP(=O)(O)OP(=O)(O)OC[C@H]3O[C@@H](n4cnc5c(N)ncnc54)[C@H](OP(=O)(O)O)[C@@H]3O)[C@@H](O)[C@H]2O)C=CC1 | L-ornithine N(5)-monooxygenase (Neosartorya fumigata, UniProt E9QYP0) | fluorescence polarization displacement |  | pH 7.0, together with: 30 nM fluorescent probe |  | 3.3 ± 0.1 µM |
| Nc1ncnc2c1ncn2[C@@H]1O[C@H](COP(=O)(O)OP(=O)(O)OP(=O)(O)OC[C@H]2O[C@@H](n3cnc4c(N)ncnc43)[C@H](O)[C@@H]2O)[C@@H](O)[C@H]1O | guaB (Bacillus subtilis, UniProt P21879) |  |  |  |  | 62 ± 10.9 µM |
| [Co+2] | methionine aminopeptidase (Acinetobacter baumannii, UniProt V5VCW7) | metal binding, activator, activity titration | ATCC 17978 | divalent metal ion Kd, together with: Met-AMC substrate |  | 0.39 µM |
| CC1=C(/C=C/C(C)=C/C=C/C(C)=C/CO)C(C)(C)CCC1 | Xenopus IRBP W587F | binding, retinol fluorescence enhancement |  |  |  | 0.05 ± 0.04 µM |
| Nc1nc2c(c(=O)[nH]1)NC(CNc1ccc(C(=O)N[C@@H](CCC(=O)N[C@@H](CCC(=O)N[C@@H](CCC(=O)N[C@@H](CCC(=O)N[C@@H](CCC(=O)O)C(=O)O)C(=O)O)C(=O)O)C(=O)O)C(=O)O)cc1)CN2 (mixture of isomers) | KDM1A (Homo sapiens, UniProt O60341) | binding |  | pH 7.5 |  | 2.8 µM |
| [N-]=[N+]=Nc1ccc[n+]([C@@H]2O[C@H](COP(=O)([O-])OP(=O)(O)OC[C@H]3O[C@@H](n4cnc5c(N)ncnc54)[C@H](O)[C@@H]3O)[C@@H](O)[C@H]2O)c1 | FDH1 (Candida boidinii, UniProt O13437) | isothermal titration calorimetry |  | pH 7.5, together with: azide |  | 8.2 µM |
| CC[C@H](C)[C@H](NC(=O)[C@@H](CCCNC(=N)N)NC(=O)[C@H](CCCNC(=N)N)NC(=O)[C@@H]1CCCN1C(=O)[C@@H]1CCCN1C(=O)[C@H](CCCNC(=N)N)NC(=O)[C@@H]1CCCN1C(=O)[C@H](CCCNC(=N)N)NC(=O)[C@@H]1CCCN1C(=O)[C@H](CC(C)C)NC(=O)[C@H](Cc1ccc(O)cc1)NC(=O)[C@@H]1CCCN1C(=O)[C@@H]1CCCN1C(=O)[C@H](CCCCN)NC(=O)[C@H](CC(=O)O)NC(=O)[C@@H](N)C(C)C)C(=O)N[C@@H](Cc1ccc(O)cc1)C(=O)N[C@@H](CC(N)=O)C(=O)N[C@H](CCCNC(=N)N)C(N)=O | 70S ribosome Acinetobacter baumannii ATCC 15308 | binding, fluorescence polarization |  | 90 min, pH 7.6, 28 °C, together with: fluorescein-labelled peptide |  | 0.073 ± 0.004 µM |
| C#Cc1ccc2ccc3cccc4ccc1c2c34 | CYP1B1 | binding, fluorescence |  | pH 7.4 |  | < 2.5 µM and 1.9 µM |
| Nc1ncnc2c1ncn2[C@@H]1O[C@H](COP(=O)(O)OP(=O)(O)O)[C@@H](O)[C@H]1O | Kynurenine 3-monooxygenase (Pseudomonas fluorescens, UniProt Q84HF5) | fluorescence polarization displacement |  | pH 7.0, together with: 30 nM fluorescent probe |  | 50 ± 10 µM |

| Substance | target | test | test system | conditions | how to read | Kd |
| --- | --- | --- | --- | --- | --- | --- |
| N=C(N)c1ccc(NCCCCCNc2ccc(C(=N)N)cc2)cc1 | CTG·CAG repeat hairpin DNA | fluorescence titration |  | 11 CTG·CAG repeats |  | 4.3 ± 1 µM |
| Nc1nc2c(ncn2[C@H]2C[C@H](O)[C@@H](COP(=O)(O)OP(=O)(O)OP(=O)(O)O)O2)c(=O)[nH]1 | DNA-directed DNA polymerase (43, Escherichia phage RB69, UniProt Q38087, D222A/D327A) | pre-steady-state kinetics |  | dNTP incorporation opposite tC° |  | 140 ± 18 µM |
| C=C1[C@@H]2CC[C@H]3[C@]4(C)C[C@H](O[C@@H]5O[C@H](CO)[C@@H](OS(=O)(=O)O)[C@H](OS(=O)(=O)O)[C@H]5OC(=O)CC(C)C)CC(C(=O)O)(C(=O)O)[C@H]4CC[C@]3(C2)[C@H]1O | SLC25A4 (Homo sapiens, UniProt P12235) | binding, SPR |  |  |  | 2.03 µM |
| CC(=O)N[C@@H](CC(C)C)C(=O)N[C@@H](CCCCN)C(=O)N[C@@H](CCCCN)C(=O)N[C@@H](CC(C)C)C(=O)N[C@@H](CC(C)C)C(=O)N[C@@H](CCCCN)C(=O)N[C@@H](Cc1c[nH]c2ccccc12)C(=O)N[C@@H](CC(C)C)C(=O)N[C@@H](CCCCN)C(=O)N[C@@H](CCCCN)C(=O)N[C@@H](CC(C)C)C(=O)N[C@@H](CC(C)C)C(=O)N[C@@H](CCCCN)C(=O)N[C@@H](CC(C)C)C(=O)N[C@@H](C)C(=O)NCC(N)=O | HCV IRES domain IV hairpin | competitive fluorescence anisotropy |  | pH 7.4, 20 °C, together with: rhodamine-Rev peptide |  | 0.00087 ± 5e-05 µM |
| Cc1cn([C@H]2C[C@H](O)[C@@H](COP(=O)(O)OP(=O)(O)OP(=O)(O)O)O2)c(=O)[nH]c1=O | DNA polymerase IV, with DNA (dbh, Saccharolobus solfataricus, UniProt Q97W02) | dNTP incorporation, substrate, single-turnover kinetics |  | 37 °C, insertion opposite lesion, together with: DNA with dG-C8-N-ABA lesion, Dpo4 120 nM |  | 970 ± 390 µM |
| Nc1ncnc2c1ncn2[C@@H]1O[C@H](COP(=O)(O)OP(=O)(O)OP(=O)(O)O)[C@@H](O)[C@H]1O | Chemotaxis protein CheA (cheA, Thermotoga maritima, UniProt Q56310) | competitor, TNP-nucleotide competition binding |  | 4 °C, second binding site, together with: TNP-compound, 0.6 µM CheA dimer, Mg2+ |  | ~5000 µM and 5000 µM |
| CC[C@H](C)[C@H](NC(=O)[C@H](CCC(=O)O)NC(=O)[C@@H](NC(=O)CCCC[C@@H]1SC[C@@H]2NC(=O)N[C@@H]21)[C@@H](C)O)C(=O)N[C@H](C(=O)N[C@@H](CC(N)=O)C(=O)N1CCC[C@H]1C(=O)N[C@@H](CC(N)=O)C(=O)N[C@@H](Cc1ccc(OP(=O)(O)O)cc1)C(=O)N[C@@H](CCSC)C(=O)NCC(=O)N[C@H](C(=O)NCC(=O)N1CCC[C@H]1C(=O)O)C(C)C)[C@@H](C)CC | Docking protein 2, PTB domain (DOK2, Homo sapiens, UniProt O60496) | SPR |  | 37 °C, high peptide density |  | > 30 µM |
| [Ni+2] | methionine aminopeptidase (Acinetobacter baumannii, UniProt A0A7U4DGZ4) | metal binding, activator, activity titration | ATCC 17978 | divalent metal ion Kd, together with: Met-AMC substrate |  | 0.26 µM |
| CSCC1NC(c2c[nH]c3c(N)ncnc23)[C@@H](O)[C@H]1O (some centres unmarked) | MTAP (Homo sapiens, UniProt Q13126) | binding, isothermal titration calorimetry |  | pH 7.4, 25 °C, apo enzyme |  | 0.07 ± 0.01 µM |
| O=C(O[C@@H]1Cc2c(O)cc(O)cc2O[C@@H]1c1cc(O)c(O)c(O)c1)c1cc(O)c(O)c(O)c1 | Beta-2-microglobulin, Cu(II)-bound (B2M, Homo sapiens, UniProt P61769) | binding to Cu(II)-β2m, covalent labelling MS (DEPC, Lys91) |  | together with: Cu(II) 60 µM |  | 11 ± 5 µM |
| COc1ccc2cc3[n+](cc2c1OC)CCc1cc2c(cc1-3)OCO2 | HTH-type transcriptional regulator QacR (qacR, Staphylococcus aureus, UniProt P0A0N4) | binding, tryptophan fluorescence quenching |  | pH 7.5 |  | 2.86 ± 0.62 µM |
| CCC(=O)[PH](=O)O | PDC1 (Saccharomyces cerevisiae, UniProt P06169, C221E/C222A) | circular dichroism |  | pH 6.0, 25 °C |  | 7830 µM |
| CC(=O)N[C@@H](CC(C)C)C(=O)N[C@@H](CCCCN)C(=O)N[C@@H](CCCCN)C(=O)N[C@@H](CC(C)C)C(=O)N[C@@H](CC(C)C)C(=O)N[C@@H](CCCCN)C(=O)N[C@@H](CC(C)C)C(=O)N[C@@H](Cc1c[nH]c2ccccc12)C(=O)N[C@@H](CCCCN)C(=O)N[C@@H](CCCCN)C(=O)N[C@@H](CC(C)C)C(=O)N[C@@H](CC(C)C)C(=O)N[C@@H](CCCCN)C(=O)N[C@@H](CC(C)C)C(=O)N[C@@H](C)C(=O)NCC(N)=O | HCV IRES domain IV hairpin | competitive fluorescence anisotropy |  | pH 7.4, 20 °C, together with: rhodamine-Rev peptide |  | 0.092 ± 0.01 µM |
| CC(C)[C@@H]1NC(=O)[C@@H]2CCCN2C(=O)[C@H](Cc2c[nH]cn2)NC(=O)[C@@H](N)CSSC[C@@H](C(=O)NCC(=O)NCC(=O)NCC(=O)NCC(=O)N[C@@H](CO)C(=O)N2CCC[C@H]2C(=O)N[C@@H](C)C(=O)N2CCC[C@H]2C(=O)N[C@@H](C)C(=O)N[C@@H](CCCCN)C(=O)O)NC(=O)[C@H](CCC(N)=O)NC(=O)[C@H](CCCCN)NC(=O)[C@H](Cc2ccc(O)cc2)NC(=O)[C@H](CCCNC(=N)N)NC(=O)[C@H](CCCNC(=N)N)NC(=O)[C@@H]2CCCN2C(=O)CNC(=O)[C@H](Cc2ccccc2)NC1=O | sapA (Haemophilus influenzae, UniProt Q4QL73) | binding, SPR |  | 25 °C, together with: immobilised oxidised defensin loop peptide |  | 0.0095 µM |
| CC1=C(/C=C/C(C)=C/C=C/C(C)=C/C=C/C=C(C)/C=C/C=C(C)/C=C/C2=C(C)C[C@@H](O)CC2(C)C)C(C)(C)C[C@H](O)C1 | GSTP1 | binding, SPR |  |  |  | 0.15 µM |
| CC[C@H](C)[C@H](NC(=O)[C@H](C)NC(=O)[C@H](CO)NC(=O)[C@@H](NC(=O)[C@H](CCC(=O)O)NC(=O)[C@H](CCC(=O)O)NC(=O)[C@H](CCC(N)=O)NC(=O)[C@H](CCCCN)NC(=O)[C@H](CCCNC(=N)N)NC(=O)[C@@H](N)CCCCN)C(C)C)C(=O)N[C@H](C(=O)N[C@H](C(=O)N[C@@H](CCC(N)=O)C(=O)N[C@@H](CCCNC(=N)N)C(=O)N[C@@H](C)C(=O)N[C@@H](Cc1ccc(O)cc1)C(=O)N[C@@H](CCCNC(=N)N)C(=O)N[C@@H](CCCNC(=N)N)C(=O)N[C@@H](Cc1ccc(O)cc1)C(=O)N[C@@H](CC(C)C)C(=O)N[C@@H](CC(C)C)C(=O)N[C@@H](CCCCN)C(=O)N[C@@H](CCC(N)=O)C(=O)N[C@@H](CCCCN)C(=O)N[C@H](C(=O)N[C@@H](CCCCN)C(=O)N[C@@H](CCCCN)C(=O)O)C(C)C)[C@@H](C)CC)C(C)C | Calmodulin (CAM, Paramecium tetraurelia, UniProt P07463) | binding, fluorescence anisotropy | Paramecium | pH 7.4, 22 °C, together with: Ca2+-saturated calmodulin (1-148) | upper limit | ≤ 0.01 µM |

Repeated from above:
| Substance | target | test | test system | conditions | how to read | Kd |
| --- | --- | --- | --- | --- | --- | --- |
| N=C(N)c1ccc(NCCCCCNc2ccc(C(=N)N)cc2)cc1 | CTG·CAG repeat hairpin DNA | fluorescence titration |  | 11 CTG·CAG repeats |  | 4.3 ± 1 µM |
| Nc1nc2c(ncn2[C@H]2C[C@H](O)[C@@H](COP(=O)(O)OP(=O)(O)OP(=O)(O)O)O2)c(=O)[nH]1 | DNA-directed DNA polymerase (43, Escherichia phage RB69, UniProt Q38087, D222A/D327A) | pre-steady-state kinetics |  | dNTP incorporation opposite tC° |  | 140 ± 18 µM |
